Published values collected from several papers.
A part holds a random share of what one study measured.

Block 1
Target: Sal-like protein 4, full length isoform A (SALL4, Homo sapiens, UniProt Q9UJQ4, residues 1-1053)
UniProt Q9UJQ4, sequence (whole entry, looked up): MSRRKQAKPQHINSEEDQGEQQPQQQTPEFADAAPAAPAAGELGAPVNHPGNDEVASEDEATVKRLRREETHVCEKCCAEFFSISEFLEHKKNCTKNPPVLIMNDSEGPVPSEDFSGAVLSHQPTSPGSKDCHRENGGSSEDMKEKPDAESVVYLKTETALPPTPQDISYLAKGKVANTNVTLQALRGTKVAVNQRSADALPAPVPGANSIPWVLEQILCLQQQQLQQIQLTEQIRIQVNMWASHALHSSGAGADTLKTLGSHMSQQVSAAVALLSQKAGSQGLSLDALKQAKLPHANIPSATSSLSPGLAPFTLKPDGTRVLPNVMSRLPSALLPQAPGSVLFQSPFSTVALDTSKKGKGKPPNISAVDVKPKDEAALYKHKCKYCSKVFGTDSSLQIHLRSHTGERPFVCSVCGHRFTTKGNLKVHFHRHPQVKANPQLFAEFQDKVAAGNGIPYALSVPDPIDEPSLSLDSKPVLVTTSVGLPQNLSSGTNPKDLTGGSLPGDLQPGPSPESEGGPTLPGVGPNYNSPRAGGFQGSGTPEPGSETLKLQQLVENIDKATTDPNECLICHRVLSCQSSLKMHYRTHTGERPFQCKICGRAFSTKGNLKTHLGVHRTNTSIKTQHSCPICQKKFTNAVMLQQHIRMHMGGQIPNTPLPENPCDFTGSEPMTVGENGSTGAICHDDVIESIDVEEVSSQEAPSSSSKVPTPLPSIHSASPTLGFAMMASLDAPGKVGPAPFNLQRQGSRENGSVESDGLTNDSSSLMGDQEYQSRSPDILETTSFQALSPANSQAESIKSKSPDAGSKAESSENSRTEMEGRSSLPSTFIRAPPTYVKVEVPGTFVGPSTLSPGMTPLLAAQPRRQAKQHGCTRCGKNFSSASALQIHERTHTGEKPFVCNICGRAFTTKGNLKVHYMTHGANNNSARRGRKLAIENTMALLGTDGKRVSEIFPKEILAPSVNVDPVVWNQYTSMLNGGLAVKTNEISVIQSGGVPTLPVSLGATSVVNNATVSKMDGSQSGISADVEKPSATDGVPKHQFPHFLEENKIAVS
Technique: universal PBM
Molecule type: double-stranded DNA, one strand shown
Medium: in vitro
Tested at: 600 nM
Notes: 8-mer, flanks averaged, mean of replicates
Direction: higher = stronger binding
Measurement: E-score
ATGGTCCA: -0.155
GCTAATGA: 0.0497
CCGGCGCG: -0.274
AACATAGG: 0.117

Block 2
Target: RNA binding protein fox-1 homolog 2, RRM domain, GST-SBP tag (RBFOX2, Homo sapiens, UniProt O43251-10, residues 100-194)
Technique: RNA Bind-n-Seq
Molecule type: RNA
Medium: in vitro
Tested at: 365 nM
Notes: natural RNA segment, single round, ends assumed
Reference: no-protein control
Direction: higher = stronger binding
Measurement: RBNS enrichment (R)
GGGAGUUCUACAGUCCGACGAUCGGUACUCCUAUGCAAUAUUACUCAGCUUUUUUUAUUGUAAAAAGAAAAAUCAACUCACUGUUCAGUGCUGAGAGGGGAUGUAGGCCCAUGGGCACCUGGCCUCCAGGAGUUGGAAUUCUCGGGUGCCAA: 0.458
GGGAGUUCUACAGUCCGACGAUCUGUUAACCAACACCCCCAAGUGACUGACACAGGUGGUCUAAAAAUUACUUUUCUAGAAACACCAUUCUGGAAGUUUGGCUGCCCACAGGCAGGAGGAGAAGCAUGAAGAGUGGAAUUCUCGGGUGCCAA: 3.39
GGGAGUUCUACAGUCCGACGAUCAGCACUGGACAGUACACUCUGGUGUACACACUUGCGCACACAUAUACACACACAAUAAUUUUUUAAACUCCAUAAAGUUAUUAACAUGUCAGCAGGCAGAGCAUUGCAGUUGGAAUUCUCGGGUGCCAA: 0.65
GGGAGUUCUACAGUCCGACGAUCUGCUGUGUGACAUUGGGACAACACUUUCCCUCUCUGGACCUCAGUUUCCCUCUGUAUACAAGGAUCAGAUUCUUGCUGUGACCCAAGAACUCCUGAAAUCAUAUAGAAAGUGGAAUUCUCGGGUGCCAA: 0.535

Block 3
Target: Histone acetyltransferase KAT6A, winged helix 1, GST fusion (KAT6A, Homo sapiens, UniProt Q92794, residues 1-85)
Technique: protein binding microarray
Molecule type: double-stranded DNA, one strand shown
Medium: in vitro
Tested at: not given
Notes: 8-mer, flanks averaged, mean of 2 arrays, mostly near background
Reference: not given
Direction: higher = stronger binding
Measurement: E-score
Residues (chain): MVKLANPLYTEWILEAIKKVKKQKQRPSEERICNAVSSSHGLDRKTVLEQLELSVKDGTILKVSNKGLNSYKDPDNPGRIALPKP
CCCTCTCA: -0.318
CCATGTGA: -0.107
CCAGTGGG: -0.173
AGGCTGAG: -0.0798
CACCAGAA: -0.202

Other studies, line by line
PhoQ, residues 284 288 289 292 302 303 SLANIV — fold induction (PhoP, residues 12 14 15 18 19 GQAIL (Escherichia coli, UniProt P23836); Sort-seq, refers to: YFP reporter; E. coli; PhoQ-PhoP variant library, together with: 10 µM Mg2+; reference: high Mg2+ state, higher = stronger signaling): 11

Some of these lines once more (block 1):
ATGGTCCA: -0.155
